Published values gathered from unrelated publications.
Parts stem from different laboratories: compare values within a part only. Positions count from the first letter of the parent shown.

Sample 1
Target: Prothrombin, mature alpha-thrombin (F2, Homo sapiens, UniProt P00734)
Technique: aptamer microarray, sandwich
Form: DNA with 2'F-ANA
Medium: in vitro
Concentration: 200 nM
Notes: whole 15-mer aptamer, many near background
With: Cy3 exosite-II aptamer, 400 nM
Direction: higher = stronger binding
Strand: GGTTGGTGTGGTTGG
Modification	mean fluorescence intensity [a.u.]
2'F-ANA at 1 7 8 10 12 15	75.5
2'F-ANA at 2 4 6 8 13 14	95.5
2'F-ANA at 2 3 5 6 7 8 11 13 14	51.1
2'F-ANA at 3 7 9 13 14 15	577
2'F-ANA at 3 4 5 7 9 10 12 13 14	50.3
2'F-ANA at 1 2 3 8 9 11 12 14	91.5
2'F-ANA at 2 3 4 5 9 10 12 13 14 15	57.1
2'F-ANA at 1 3 4 6 7 8 10 11 12 13 15	69.7
2'F-ANA at 1 2 4 7 8 9 12 15	357
2'F-ANA at 5 6 8 11 13 15	56.5
2'F-ANA at 1 2 5 8 10 11 12 14 15	159
2'F-ANA at 3 5 6 7 8 9 10 12 15	64.4
2'F-ANA at 1 2 4 5 6 7 8	61.4
2'F-ANA at 2 5 7 9 10 13	47.1
2'F-ANA at 1 5 6 8 10 12 13 14	48.9
2'F-ANA at 1 2 9 10 11 12 15	71.2
2'F-ANA at 1 3 4 5 6 9 10 11 13 15	51.4
2'F-ANA at 4 9 11 13 14	72
2'F-ANA at 1 9 11 12 14 15	62.7
2'F-ANA at 1 2 4 6 8 9 10 12 14	48.4
2'F-ANA at 1 3 5 6 10 14 15	46.9
2'F-ANA at 2 3 4 5 6 7 8 9 10	49.6
2'F-ANA at 1 3 4 6 8 9 10 11 14	50.1
2'F-ANA at 3 5 6 7 8 9 12 14	63.3
2'F-ANA at 4 5 8 10 11 15	59.6

Sample 2
Target: Protein C-ets-1 (ETS1, Homo sapiens, UniProt P14921, residues 1-441, full length assumed)
Technique: protein-binding microarray
Form: double-stranded DNA, one strand shown
Medium: in vitro
Concentration: not given
Notes: k-mer, scored over probes, only values ≥0.25
Direction: higher = stronger binding
Residues (chain): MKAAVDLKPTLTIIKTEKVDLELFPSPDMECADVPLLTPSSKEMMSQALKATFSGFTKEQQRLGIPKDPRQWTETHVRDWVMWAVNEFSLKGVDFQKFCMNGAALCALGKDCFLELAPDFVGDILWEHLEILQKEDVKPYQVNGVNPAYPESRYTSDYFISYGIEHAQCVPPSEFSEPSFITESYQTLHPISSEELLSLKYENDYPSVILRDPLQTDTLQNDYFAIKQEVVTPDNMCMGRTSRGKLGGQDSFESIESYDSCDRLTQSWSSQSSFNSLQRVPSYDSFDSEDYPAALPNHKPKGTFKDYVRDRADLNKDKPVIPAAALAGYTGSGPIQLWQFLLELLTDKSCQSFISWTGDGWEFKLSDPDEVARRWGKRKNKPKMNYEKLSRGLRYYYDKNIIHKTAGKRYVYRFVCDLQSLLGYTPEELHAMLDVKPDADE
Strand	E-score
CGACCGGA	0.464
GGATACAC	0.307
GATTCCGC	0.29
CAGCAGGA	0.282
AACTTTCC	0.309
GGCGGAAC	0.383
TGTCGGAA	0.298
TCCGGACA	0.419
AGTCGGAT	0.287
CGGACATA	0.286
CAGCATCC	0.402
CGGAATAG	0.296
GTACAGGA	0.37
CCTCGGAA	0.293
AGCGGAAC	0.416
AGGAAGCC	0.398
GATCCGGC	0.362
GAGCAGGA	0.309

Sample 3
Target: Interferon regulatory factor 7, full length, phosphomimetic (IRF7, Homo sapiens, UniProt Q92985, residues 1-503, S101K/S471D/S472D/S475D/S476D/S477D/S483D/S484D/S487D)
Technique: protein-binding microarray
Form: double-stranded DNA, one strand shown
Medium: in vitro
Concentration: 250 nM
Notes: 60-bp whole probe
With: salmon DNA 0.4 mg/ml
Baseline: random background probes
Direction: higher = stronger binding
All sequences stand within: GCCTAGCAC … GTCTTGATTCGCTTGACGCTGCTG
Target sequence (chain): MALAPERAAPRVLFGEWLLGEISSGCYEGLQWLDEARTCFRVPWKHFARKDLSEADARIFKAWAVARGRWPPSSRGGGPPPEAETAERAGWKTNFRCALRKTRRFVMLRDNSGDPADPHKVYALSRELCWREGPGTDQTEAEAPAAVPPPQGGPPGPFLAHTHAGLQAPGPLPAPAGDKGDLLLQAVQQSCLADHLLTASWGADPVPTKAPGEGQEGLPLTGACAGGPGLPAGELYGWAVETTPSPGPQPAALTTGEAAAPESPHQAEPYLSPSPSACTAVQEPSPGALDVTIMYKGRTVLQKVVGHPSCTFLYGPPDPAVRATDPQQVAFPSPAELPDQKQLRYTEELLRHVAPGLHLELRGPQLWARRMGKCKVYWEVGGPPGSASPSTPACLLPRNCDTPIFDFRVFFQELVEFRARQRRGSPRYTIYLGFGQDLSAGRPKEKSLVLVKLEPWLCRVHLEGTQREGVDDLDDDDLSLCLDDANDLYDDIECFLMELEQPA
Strand	log fluorescence [z-score]
GACGCTTTCCTACTGCTGACGTGCTAG	1.39
GACGGTTTCCTTCTGCTGACGTGCTAG	3.09
TATCAGTTTAATATCTAAGAGTGCTAG	0.231
TAAGGACTGGACACTGGGTTAGTGCTA	-0.4
GACGGTCTCGGTTGCGGGACGTGCTAG	1.23
TGATGTCTGGGTCTTGGTTCGTGCTAG	-0.0944
TTAGGACTGGGGACCGGGTTAGTGCTA	-0.0284
TTAGGACTGGACCTTCGGTTAGTGCTA	-0.458
AGGGTGTTCTTTTCTGTTGTCGTGCTA	-0.126
TCTGTTTCTGATATGGTATGGTGCTAG	2.25
GACGGTTACCTTCTCCTGACGTGCTAG	0.174
TCATTTTTCTATATGCAACTGTGCTAG	2.22
GACGGTTTCTTTCTCCTGACGTGCTAG	2.55
TTAGATTTCAGGTTTCGATTAGTGCTA	7.99
TTAGGTATCCTTTCCCTTTAGTGCTAG	1.18
TTAGGTTCCGGTTTCGGATAGTGCTAG	9.49
GACGGTCTCGGTCTCGGGAGGTGCTAG	0.629
ATGCTTTACTCACTCGGAAAGTGCTAG	0.694
TCACCTTTTCTTTACTGACTGTGCTAG	1.26
TTAGAACTGGGGTTTCGATTAGTGCTA	5.74

Sample 4
Target: CCNA1, cyclin fold, Cln2 fusion (human)
Technique: yeast growth competition, sequencing
Medium: yeast
Notes: weak parent motif
Baseline: not given
Direction: higher = stronger binding
Starting sequence: CDKN1A docking peptide (human); SKACRRLFGPVDS; partner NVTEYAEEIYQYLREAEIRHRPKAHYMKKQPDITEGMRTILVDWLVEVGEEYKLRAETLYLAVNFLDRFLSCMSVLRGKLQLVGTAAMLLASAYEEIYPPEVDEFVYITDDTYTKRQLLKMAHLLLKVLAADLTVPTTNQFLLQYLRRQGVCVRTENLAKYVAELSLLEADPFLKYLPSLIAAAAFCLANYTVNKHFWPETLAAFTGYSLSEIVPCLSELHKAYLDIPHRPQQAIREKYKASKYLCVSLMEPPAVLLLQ
Substitution	normalised enrichment score
L7D	0.0765
R6F	0.212
R6P	-0.0528
P10K	0.341
F8T	-0.445
F8R	0.163
A3E	-0.0363
L7A	0.0667
D12F	0.384
R6L	-0.215
P10Q	0.229
P10D	0.689
R5F	-0.137
G9V	0.742
D12R	0.142
D12V	0.914
A3F	0.0693
L7P	0.182

Sample 5
Target: Histone acetyltransferase KAT6A, both winged helices, GST fusion (KAT6A, Homo sapiens, UniProt Q92794, residues 1-181)
Technique: protein binding microarray
Form: double-stranded DNA, one strand shown
Medium: in vitro
Concentration: not given
Notes: 8-mer, flanks averaged, mean of 2 arrays, mostly near background
Baseline: not given
Direction: higher = stronger binding
Construct (chain): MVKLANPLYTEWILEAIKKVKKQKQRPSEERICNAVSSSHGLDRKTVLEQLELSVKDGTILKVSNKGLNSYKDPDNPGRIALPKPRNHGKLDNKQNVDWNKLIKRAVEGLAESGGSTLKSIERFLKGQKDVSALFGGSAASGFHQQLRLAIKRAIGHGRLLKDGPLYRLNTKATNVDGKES
Strand	E-score
TCAGGCAA	-0.171
GCCCACAC	-0.0194
CGCTCGAG	0.156
TATTTACA	-0.099
GATGCGCA	0.251
TCATATCA	-0.0737
GAGGAAGA	-0.143
CCGCTGCG	0.275
CGTGAAAA	0.155
CACCCTAG	-0.132
GATGTAAC	0.136
AACGGCAC	0.247
GGCGCCCA	0.167
AAGTCATC	-0.0811
ATCTCGAA	0.0477
AGCGGCGG	0.351
CTGTATCC	-0.0437
TTAACAAA	0.108
ATGGCCAG	-0.137
TACTAGAA	0.03
ACTCATCC	-0.0822
CTCGTGGC	-0.0441
ACTTTACT	-0.164
AACCCAAA	-0.14
CATATATC	-0.00165

Mixed results
Molecule	target	test	system	conditions	how to read	endpoint	value
PhoQ, residues 284 288 289 292 302 303 GASLAW	PhoP, residues 12 14 15 18 19 AQCLL (Escherichia coli, UniProt P23836)	Sort-seq, refers to: YFP reporter	E. coli	PhoQ-PhoP variant library, with: 10 µM Mg2+	baseline: high Mg2+ state, higher = stronger signaling	fold induction	2.99

Repeated from above (sample 5):
Strand	E-score
CTCGTGGC	-0.0441
GATGCGCA	0.251
TCAGGCAA	-0.171
ATCTCGAA	0.0477
TATTTACA	-0.099
TCATATCA	-0.0737
GGCGCCCA	0.167
